Measurements pooled from the literature.
Each numbered part is a random draw from the data of one study; scales do not carry over between parts. Changes are numbered by the printed parent chain.

Sample 1
Target: Histone acetyltransferase KAT6A, both winged helices, GST fusion (KAT6A, Homo sapiens, UniProt Q92794, residues 1-181)
Method: protein binding microarray
Molecule type: double-stranded DNA, one strand shown
Medium: in vitro
Tested at: not given
Notes: 8-mer, flanks averaged, mean of 2 arrays, mostly near background
Baseline: not given
Direction: higher = stronger binding
Endpoint: E-score
Construct (chain): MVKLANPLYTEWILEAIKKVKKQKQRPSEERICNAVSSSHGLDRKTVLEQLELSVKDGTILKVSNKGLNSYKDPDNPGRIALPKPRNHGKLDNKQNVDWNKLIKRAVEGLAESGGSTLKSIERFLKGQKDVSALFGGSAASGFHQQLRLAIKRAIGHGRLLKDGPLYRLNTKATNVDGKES
Sequence = GAGTCAAC; result = -0.116
Sequence = AAGGAAGA; result = -0.113
Sequence = AAGATCCC; result = -0.0315
Sequence = AAGAGAAT; result = -0.112
Sequence = AGGAGGAG; result = -0.0926
Sequence = TCGGCTCA; result = 0.119
Sequence = CGCGAATA; result = 0.197
Sequence = AGAGTGCT; result = -0.119
Sequence = ACGGAAAA; result = 0.211
Sequence = AGCGGTAT; result = 0.226
Sequence = CGGGCACA; result = 0.0743
Sequence = ATCTGATA; result = -0.0725
Sequence = GACTGACC; result = 0.0208
Sequence = TGGTTACA; result = -0.117
Sequence = GCCCAAGC; result = 0.079
Sequence = GACCACAA; result = -0.115
Sequence = TCGCATAA; result = 0.127
Sequence = GATCAAGC; result = 0.0624

Sample 2
Target: RING finger protein unkempt homolog, zinc fingers 1-6, GST-SBP tag (UNK, Homo sapiens, UniProt Q9C0B0, residues 30-357)
Chain of UniProt Q9C0B0 (30-357, looked up): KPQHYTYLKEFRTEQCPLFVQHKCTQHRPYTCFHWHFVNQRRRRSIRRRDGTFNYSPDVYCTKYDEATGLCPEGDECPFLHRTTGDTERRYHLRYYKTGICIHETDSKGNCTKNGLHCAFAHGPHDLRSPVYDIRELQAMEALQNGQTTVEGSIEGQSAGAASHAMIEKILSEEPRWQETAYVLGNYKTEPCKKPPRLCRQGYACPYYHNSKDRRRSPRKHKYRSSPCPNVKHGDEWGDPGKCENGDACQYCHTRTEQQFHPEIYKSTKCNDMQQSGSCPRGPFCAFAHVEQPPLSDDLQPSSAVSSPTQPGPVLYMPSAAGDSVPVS
Method: RNA Bind-n-Seq
Molecule type: RNA
Medium: in vitro
Tested at: not given
Notes: RNA with constant flanks, ends assumed
Baseline: input RNA pool
Direction: higher = stronger binding
Endpoint: bound/input enrichment
Sequence = GGGAGUUCUACAGUCCGACGAUCAAAAUUGUCCGAUGCCAUGAACACAUAGAAAUCCUUACAGUAAAUGGAGAAUUACUGUUUUUCCGACAAAGAGAAGGGCCUUUUUAUCCAACUUUAAGAUUACUUCAUAAAUAUCCUUUUCAACAGAGGAUUGAGCAUCA; result = 0.427 ratio
Sequence = GGGAGUUCUACAGUCCGACGAUCCUUGCAGUGAGGAAAAGAACCAUUAUCGCUCUUGGCCAUCUGGUUAUGAGCUGUGGAAAUACCGUUUUUGUAGAUCUUAUUGAACAUCUGUUGUCAGAGUUGUCCAAAAAUGAUUCUAUGCAACAGAGGAUUGAGCAUCA; result = 0.41 ratio
Sequence = GGGAGUUCUACAGUCCGACGAUCGAAAAGUUAGAACCUUGCUGUUAAUCUCAUCUGCUGUGUGUGAAGAUCAAUCAGUGGUCCCUCCGAUUCUUCCCUGCUAACCAAGGAAACAGGGUCGGCCUUGAUAAAUCAAGGGAGUUGCAACAGAGGAUUGAGCAUCA; result = 0.28 ratio
Sequence = GGGAGUUCUACAGUCCGACGAUCUGCCUCUAAGGCUGGGCUCUGCCUCAGAGGAGUUUAUUUUCUUUUUUUCUAUAAAGUUUAAACCGUCUUUUGAGUGAAUUUUCUGGUCAUUGCCUAUACAAAUAAAUGUAAGAAAUCUGGCAACAGAGGAUUGAGCAUCA; result = 0.332 ratio

Sample 3
Target: ABI1, truncated, D143A, DHFR fusion (Arabidopsis thaliana, UniProt P49597)
Method: DHFR PCA, dose-response
Medium: yeast
Notes: Hill fit, mean, not affinity
Together with: (+)-ABA, dose series
Direction: lower = more sensitive
Endpoint: ABA EC50
Starting sequence: PYL1, truncated, DHFR fusion (Arabidopsis thaliana, UniProt Q8VZS8); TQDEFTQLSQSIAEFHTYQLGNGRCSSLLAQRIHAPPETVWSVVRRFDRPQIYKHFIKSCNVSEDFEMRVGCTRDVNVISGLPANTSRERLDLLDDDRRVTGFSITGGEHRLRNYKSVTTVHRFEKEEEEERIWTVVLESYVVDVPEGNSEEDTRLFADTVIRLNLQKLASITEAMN
Substitution = R45N; result = 119 µM
Substitution = D96N; result = 17.5 µM
Substitution = E131L; result = 4.02 µM
Substitution = L138T; result = 200 µM
Substitution = I33T; result = 225 µM
Substitution = E129A; result = 1.97 µM
Substitution = R163T; result = 4.14 µM
Substitution = E129Q; result = 2.33 µM
Substitution = E125S; result = 2.48 µM
Substitution = W134E; result = 1.04 µM
Substitution = S42W; result = 48.1 µM
Substitution = F47V; result = 766 µM
Substitution = R88Y; result = 2.46 µM
Substitution = I79R; result = 13.9 µM
Substitution = S63P; result = 3.15 µM
Substitution = R155I; result = 3.11 µM

Sample 4
Target: RNA binding protein fox-1 homolog 2, RRM domain, GST-SBP tag (RBFOX2, Homo sapiens, UniProt O43251-10, residues 100-194)
Method: RNA Bind-n-Seq
Molecule type: RNA
Medium: in vitro
Tested at: 365 nM
Notes: natural RNA segment, single round, ends assumed
Baseline: no-protein control
Direction: higher = stronger binding
Endpoint: RBNS enrichment (R)
Residues (chain): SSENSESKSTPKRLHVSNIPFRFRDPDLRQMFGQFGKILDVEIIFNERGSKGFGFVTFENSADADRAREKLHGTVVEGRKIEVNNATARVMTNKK
Sequence = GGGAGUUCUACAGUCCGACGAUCCCGAGUGGCUCCUGAAUUUAAGUCUGGGACGACAUCUUUUAUUUUUACAUGAAUCUUUAAACAAUUCUGUGAGCAAAGUUUGUAGCUGCUGGAUUAUUGUCUGUCUUUAUUGGAAUUCUCGGGUGCCAA; result = 0.928
Sequence = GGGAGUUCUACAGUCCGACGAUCUAUCACCCACACAGCACCAUCUCCCCGGCUUGGCUUGGUUAGAAUGGUGAGGGGUUUACAGGGUAAGGGGACAAGACUACACACACUAGCGUGGUAGGACUAGAUUUUUGUGGAAUUCUCGGGUGCCAA; result = 0.446
Sequence = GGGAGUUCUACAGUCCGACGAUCAUCUGGCGCUUUUUCUAUCGUCUCUGCUAUGUCACUGAAUUAACCACUGUACGUGGCAGAGGUGGCAGGCCCCUCAGGGUCCUUAUUUUUCAGGCAUGGGGUCAAAGCUAUGGAAUUCUCGGGUGCCAA; result = 0.247
Sequence = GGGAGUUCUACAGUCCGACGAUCACCCUAGCGGUCUUCAGACAUUAAGUUCACGUCAUCCACUGAAAGGAAGGGUCCUUGCGUUGACAGCGUGUGGCUUUGGAGUCCGUUUAUGGAAGCACUCUACAAUGAACUGGAAUUCUCGGGUGCCAA; result = 0.355
Sequence = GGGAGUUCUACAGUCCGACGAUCACAAUUUAAGGUCUUUUCUAAACACGAUAGUUAUAAAUGUCCUUUUUAGAUCUUCUGGGGUAUGCACAGCUUUAAUGAAUUAAAUUUACUGGAAUCAAUUGAAAUAAGAGUGGAAUUCUCGGGUGCCAA; result = 1.53
Sequence = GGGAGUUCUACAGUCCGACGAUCGGUGCACGGAGAGCCUGCCCACUAGUCUUCUGAGAUCUUGGGCCUGUUGCUAGCCACGUGGGAAGCUCAUCUUUCCCAGCAUCUACCCUGCUCUGAAAAUAGGUGCCCAGUGGAAUUCUCGGGUGCCAA; result = 2.38
Sequence = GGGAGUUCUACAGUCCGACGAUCUGGCUCAUCUAGUCUUCCUUUUGUAGCGCAUGGUUGGGAGGAAAAAGUGCAUGCCUCUGUACGUCACACCUUUCUCACCCCUCCCUACCAACACGAGGUGUUUGGUCUGCUGGAAUUCUCGGGUGCCAA; result = 7.71
Sequence = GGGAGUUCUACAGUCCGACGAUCAGCUCGUCCCUUGGACUAGAGUCUCCACAGUUCCAGUAAAAUUCUGCGGUGGGCUGAUGAGCUGCUUGCAUUUCUGUGACAUUUCCAGAUAUGAUUCUCAGUGGGAUUUUUGGAAUUCUCGGGUGCCAA; result = 0.389

Sample 5
Target: Interferon regulatory factor 5, full length, phosphomimetic (IRF5, Homo sapiens, UniProt Q13568-2, residues 1-514, S451D/S453D/S456D/S462D)
Method: protein-binding microarray
Molecule type: double-stranded DNA, one strand shown
Medium: in vitro
Tested at: 940 nM top
Notes: 60-bp whole probe
Together with: salmon DNA 0.4 mg/ml
Baseline: random background probes
Direction: higher = stronger binding
Endpoint: fitted relative affinity
Constant ends, left off below: GCCTAGCAC … GTCTTGATTCGCTTGACGCTGCTG
Sequence = TCACAACTCGCCTTTTTTACTGTGCTA; result = 0.951 z-score
Sequence = AACGAACTGAGTCTCGAGACGTGCTAG; result = 0.862 z-score
Sequence = TTACATTTCAGTATCGATTAGTGCTAG; result = 6.65 z-score
Sequence = GACGATTTCAGTTTCGTGACGTGCTAG; result = 2.58 z-score
Sequence = TTACATCTCAGTATCGATTAGTGCTAG; result = 5.65 z-score
Sequence = TTAGGAGTGGGGACTGGGTTAGTGCTA; result = -0.104 z-score
Sequence = TTTTTTCTACTTCTGTTTTTGTGCTAG; result = 1.92 z-score
Sequence = GGCGGTATCGGGTATCGGGACGTGCTA; result = 5.51 z-score
Sequence = GACGGTATCGACACCGGGGACGTGCTA; result = 4.2 z-score
Sequence = TCACTCATGGCTTTGTAACTGTGCTAG; result = 0.151 z-score
Sequence = TTAGATCTCATTTTCGATTAGTGCTAG; result = 2 z-score
Sequence = TTAGGTTTTGGTTCCGGTTAGTGCTAG; result = 5.64 z-score
Sequence = GACGAACTGAGTTTCGCGACGTGCTAG; result = 0.761 z-score
Sequence = TTCGGTATCGACACTGGGTTAGTGCTA; result = 4.79 z-score
Sequence = TCACTTTTGCTTGTTCTTACTGTGCTA; result = 1.45 z-score
Sequence = GTCGGTATCGGGTTTCGGGACGTGCTA; result = 6.85 z-score
Sequence = GACGGTATCGGGACTGGGGCCGTGCTA; result = 2.89 z-score
Sequence = TCATCTGTTCTTTTCAGACTGTGCTAG; result = 0.207 z-score

Sample 6
Target: Protein C-ets-1 (ETS1, Homo sapiens, UniProt P14921, residues 1-441, full length assumed)
Method: protein-binding microarray
Molecule type: double-stranded DNA, one strand shown
Medium: in vitro
Tested at: not given
Notes: k-mer, scored over probes, only values ≥0.25
Direction: higher = stronger binding
Endpoint: E-score
Construct (chain): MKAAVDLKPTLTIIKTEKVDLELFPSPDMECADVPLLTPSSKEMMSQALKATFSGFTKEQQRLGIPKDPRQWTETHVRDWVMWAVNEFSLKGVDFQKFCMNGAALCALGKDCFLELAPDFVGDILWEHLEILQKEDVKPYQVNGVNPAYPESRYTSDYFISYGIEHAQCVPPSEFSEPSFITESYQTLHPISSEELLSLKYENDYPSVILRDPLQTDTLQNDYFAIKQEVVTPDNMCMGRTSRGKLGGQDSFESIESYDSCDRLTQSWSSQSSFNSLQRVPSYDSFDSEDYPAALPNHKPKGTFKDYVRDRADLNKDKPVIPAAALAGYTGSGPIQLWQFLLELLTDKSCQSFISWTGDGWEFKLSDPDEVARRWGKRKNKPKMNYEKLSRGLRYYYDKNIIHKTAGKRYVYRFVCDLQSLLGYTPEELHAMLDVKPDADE
Sequence = AGAGGATG; result = 0.412
Sequence = ACTGGAAA; result = 0.319
Sequence = AGGAAGAT; result = 0.344
Sequence = AAGGATGC; result = 0.368
Sequence = GCATTTCC; result = 0.437
Sequence = GGATGCAC; result = 0.371
Sequence = GGAATTGA; result = 0.274
Sequence = CCCTTCCC; result = 0.333
Sequence = AATTCCGC; result = 0.345
Sequence = AAAAGGAA; result = 0.36
Sequence = AGGATGAA; result = 0.287
Sequence = CATGGGAA; result = 0.292

For quick reference, copied from above (sample 6):
Sequence = GGATGCAC; result = 0.371
Sequence = GGAATTGA; result = 0.274
Sequence = CCCTTCCC; result = 0.333
Sequence = AATTCCGC; result = 0.345
Sequence = AAAAGGAA; result = 0.36
